Assay results pooled from the literature.
Compare with care: the assays were run in different laboratories. “And” joins repeats or separate records; there may be more than shown. ± marks the error that the study gave.
Chain of UniProt Q16853 (whole entry, looked up): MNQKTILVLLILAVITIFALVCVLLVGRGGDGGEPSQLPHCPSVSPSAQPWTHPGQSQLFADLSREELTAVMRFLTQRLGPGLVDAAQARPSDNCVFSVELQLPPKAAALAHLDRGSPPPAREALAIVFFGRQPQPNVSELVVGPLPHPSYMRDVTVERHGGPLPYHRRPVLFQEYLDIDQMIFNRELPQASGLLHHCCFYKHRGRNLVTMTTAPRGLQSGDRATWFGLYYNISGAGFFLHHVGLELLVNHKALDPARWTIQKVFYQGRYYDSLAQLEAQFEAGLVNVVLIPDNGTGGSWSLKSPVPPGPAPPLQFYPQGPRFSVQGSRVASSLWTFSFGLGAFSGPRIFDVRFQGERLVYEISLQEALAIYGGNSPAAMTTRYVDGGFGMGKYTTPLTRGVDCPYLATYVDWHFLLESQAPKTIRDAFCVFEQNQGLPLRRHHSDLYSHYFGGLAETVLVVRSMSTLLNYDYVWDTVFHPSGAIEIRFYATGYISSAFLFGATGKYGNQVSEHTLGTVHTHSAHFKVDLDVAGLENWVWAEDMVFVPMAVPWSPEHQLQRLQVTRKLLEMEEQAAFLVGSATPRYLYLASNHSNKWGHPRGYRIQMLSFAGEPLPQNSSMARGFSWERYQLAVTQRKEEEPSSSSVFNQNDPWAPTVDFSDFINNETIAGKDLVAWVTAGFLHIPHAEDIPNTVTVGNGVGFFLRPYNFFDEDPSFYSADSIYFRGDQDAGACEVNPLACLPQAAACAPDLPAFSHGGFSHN

SMILES	target or system	assay	test system	conditions	how to read	endpoint	result
CC(C)C[C@H](NC(=O)C[C@H](O)[C@H](CC(C)C)NC(=O)[C@H](Cc1c[nH]cn1)NC(=O)CNC(=O)[C@@H](NC(=O)[C@H](C)NC(=O)[C@H](Cc1c[nH]c2ccccc12)NC(=O)[C@H](CCC(N)=O)NC(=O)[C@@H](Cc1ccccc1)NC(=O)COCCOCCNC(=O)CCC(C(=O)O)N1CCN(CC(=O)O)CCN(CC(=O)O)CCN(CC(=O)O)CC1)C(C)C)C(N)=O (stereo partly shown) [lutetium-177 labelled]			female BALB/c nu/nu mice, pancreas	intravenous, 100 pmol, 24 h, added: PA 300 µg		tissue uptake	0.024 ± 0.004 %ID/g
Cc1cccn2c(=O)c(/C=C3\SC(=S)N(CC(C)C)C3=O)c(NCCCOC(C)C)nc12	C127 LDR GFP reporter cells	silenced GFP reporter induction, activator, high-content imaging		retest, two-run mean		efficacy	48%
CCOc1ccc(NC(=O)CC(C)O)cc1 (stereo not shown)	human iPSC-derived cardiomyocytes	MyBP-C/MYH ratio, plate-normalised SD score		concentration not given, primary screen	direction not given	activity score	13.4
O=C(CCCSc1nc2c(c(=O)[nH]1)CCCC2)Nc1nc2ccccc2[nH]1	cells, COS-1, expressing proMMP-9	cell migration, 2D collagen dot migration		50 µM, 18 h		inhibition	77 ± 2%
C=CC1=C(C)c2cc3[n-]c(cc4nc(cc5[n-]c(cc1n2)c(C)c5C=C)C(C)=C4CCC(=O)O)c(CCC(=O)O)c3C.[Zn+2]	SH-SY5Y	RNA-seq, measured: IQGAP2 mRNA		5 µM, 5 h	reference: untreated cells	fold change	1.88
CCn1cc(-c2cc(Cn3ccnc3)cc3c2CCN([C@H](c2cc(OC)ccn2)C2CC2)C3=O)c(C(F)(F)F)n1	JHOS2	cell growth		120 h		EC50	> 30000 nM
Cc1cc(N2CCc3c(c(C)nn3CC34CCC(NC(=O)[C@@H]5COCCN5)(CC3)CC4)C2)c2cnn(C)c2n1	human PBMC	qRT-PCR, measured: IFI27 mRNA		100 nM, added: ssRNA		inhibition	96 ± 1%
O=C(O)CNC(=O)Cc1ccccc1			ventricular cardiomyocytes, C57BL/6 mouse	dose not given, 0.576 s		sarcomere length	1.64 µm
O=c1[nH]c(=O)c2cc(S(=O)(=O)Nc3ccc(N4CCCCCC4)cc3)ccc2[nH]1	adult rat ventricular myocytes			10 µM	reference: basal	cell length	96%
Cc1ncsc1-c1ccc([C@H](C)NC(=O)[C@@H]2C[C@@H](O)CN2C(=O)[C@@H](NC(=O)CCCCCCCCC(=O)N(CCO)CCCOc2ccc3c(Nc4cc(CC(=O)Nc5cccc(F)c5)[nH]n4)ncnc3c2)C(C)(C)C)cc1	PC-3 and HPAF-II cells	western blot, measured: MAPK		1 µM, 24 h		protein level	no effect
Cn1cc(Nc2nccc(-c3ccc4c(c3)CN(C3COC3)CC[C@H]4NC(=O)c3cn(C(C)(C)C)nn3)n2)cn1	mouse splenic B cells	measured: apelin Cardiomyocyte signalling pathway		30 mg/kg, IgD-activated in vivo	reference: vehicle, direction not given	pathway activation z-score	3
Cc1cccc(-c2[nH]c(CNc3ccccc3F)nc2-c2ccc3ncnn3c2)n1	MM1.S pomalidomide-resistant	XTT		2.25 µM		viability	29% and 50% and 37%
C[C@H](NC(=O)C(=O)Nc1ccccc1C(C)(C)C)C(=O)N[C@@H](CC(=O)O)C(=O)COc1c(F)c(F)cc(F)c1F	THP-1 cells, LPS-primed	pyroptosis, LDH release		25 µM, LPS 1 µg/mL, 4 h, added: nigericin 5 µM, 2 h		cell lysis	41.9%
COC1=C2C[C@@H](C)C[C@H](OC)[C@H](O)[C@@H](C)/C=C(\C)[C@H](OC(N)=O)[C@@H](OC)/C=C\C=C(/C)C(=O)NC(=CC1=O)C2=O	human iPSC-derived cardiomyocytes	MyBP-C/MYH ratio, plate-normalised SD score		concentration not given, primary screen	direction not given	activity score	5
C=CC(=O)N1[C@@H](c2ccc3c(c2)OCO3)c2[nH]c3ccccc3c2C[C@H]1C(=O)NC	rat DRG neurons			0.04115 µM, 48 h, added: vincristine 40 nM		neuron degeneration	80.4% and 77.5%
Cc1cc(C)n(-c2nc(-c3ccc(Cl)cc3)c3c(NC(=O)c4ccccc4)nnc-3[nH]2)n1	NCI60 cell panel	SRB		10 µM		mean growth percent	92.1%
C[C@@]12C(=O)OC(=O)[C@]1(C)[C@H]1CC[C@@H]2O1	human iPSC-derived cardiomyocytes	MyBP-C/MYH ratio, plate-normalised SD score		concentration not given, primary screen	direction not given	activity score	5.1
COc1ccc(-n2nc(C(C)=O)s/c2=N\N=C(/C)c2ccc(NC(=O)c3ccc(Cl)cc3)cc2)cc1	MCF7			5 µM		toxicity	96.3%
CCCCc1nc(Cl)c(CO)n1Cc1ccc(-c2ccccc2-c2nn[nH]n2)cc1	human PBMC	RNA-seq, measured: CD163 mRNA		10 µg/mL, 24 h	reference: untreated control	log2 fold change	-1.85
C[C@H]1C[C@H]2CSC(N)=N[C@@]2(c2nc(NC(=O)c3ccc(OC(F)F)cn3)cs2)CO1		measured: Aβx-40	healthy adults, plasma	15 mg once daily, day 7	reference: placebo	percent change from baseline	-56.5%
OC(CCN1CCCCC1)(c1ccccc1)C1CC2C=CC1C2 (stereo not shown)		resting-state EEG	healthy elderly humans	oral, 2 mg, eyes open, LS mean	reference: baseline	change in EEG Alpha2-power Pz-O2	22.1%
CC[C@H](C)N(CC(=O)N(CC(=O)N(CC(=O)N(CC(=O)N(CC(=O)N(CC(=O)N(CC(N)=O)[C@@H](C)c1ccccc1)[C@@H](C)c1ccccc1)[C@@H](C)CC)[C@@H](C)c1ccccc1)[C@@H](C)c1ccccc1)[C@@H](C)CC)C(=O)CNCCCCN	THP-1 macrophages	measured: IL-6		50 µM, 72 h, added: LPS 2 ng/mL	reference: LPS alone	cytokine release	decreased
CCCCCNC(=O)N1CCC(CN(Cc2ccc(Cl)cc2)Cc2ccc([N+](=O)[O-])s2)C1 (stereo not shown)	knock-down, REV-ERBα/β, HepG2	transcription, qPCR, measured: BMAL1 mRNA		concentration not given		inhibition	5.9%

SMILES	target or system	assay	test system	conditions	how to read	endpoint	result
C[C@H](Nc1ccc2c(c1)OCCn1cc(N3C(=O)OC[C@H]3C(F)F)nc1-2)C(N)=O	TCC-SUP	cell growth, CellTiter-Glo		120 h		Hill coefficient	0.5
O=C(C[C@@H](C(F)F)n1ccc(F)n1)N1CCC(O)(Cn2cnc3c(cnn3-c3ccc(F)cc3)c2=O)CC1	CHP-212 parental	PI flow cytometry		0.1 µM, 24 h		G1 phase cells	66.5%
Cn1c(Nc2nc3ccc(C(F)(F)F)cc3s2)nc2cc(C(=O)NCCOCCO)ccc21	SH-SY5Y	RNA-seq, measured: CEBPD mRNA		5 µM, 5 h	reference: untreated cells	fold change	4.52
CC[C@H](C)/C=C/C(=O)N1C[C@@H](C)C[C@H]1C(=O)N[C@@H](CCC1CCCCC1)C(=O)N[C@@H](CC(C)C)C(=O)NC(C)(C)C(=O)N[C@@H](CC(C)C)C(=O)N[C@@H](CC(C)C)C(=O)NC(C)(C)C(=O)NC(C)(C)C(=O)NCCC(=O)N[C@@H](C)CN(C)C	permeabilized human fibroblasts	high-resolution respirometry		50 nM, after first injection, added: succinate		respiration	no inhibition
CCOC(=O)c1c(NC(=O)CC2Nc3cc(C)c(C)cc3NC2=O)sc(C)c1C (stereo not shown)	C127 LDR GFP reporter cells	silenced GFP reporter induction, activator, high-content imaging		retest, two-run mean		efficacy	104%
COc1ccc2c(c1)c(CC(=O)OCC(=O)O)c(C)n2C(=O)c1ccc(Cl)cc1	human iPSC-derived cardiomyocytes	MyBP-C/MYH ratio, plate-normalised SD score		concentration not given, primary screen	direction not given	activity score	4
CC(=O)Nc1cccc(-n2c(=O)n(C3CC3)c(=O)c3c(Nc4ccc(I)cc4F)n(C)c(=O)c(C)c32)c1	LoVo (KRAS G13D)	cell viability, resazurin		1.56 nM, 72 h	reference: DMSO	fractional effect	0.168 and 0.197
CC(C)C[C@H](NC(=O)C[C@H](O)[C@H](CC(C)C)NC(=O)[C@H](Cc1c[nH]cn1)NC(=O)CNC(=O)[C@@H](NC(=O)[C@H](C)NC(=O)[C@H](Cc1c[nH]c2ccccc12)NC(=O)[C@H](CCC(N)=O)NC(=O)[C@@H](Cc1ccccc1)NC(=O)COCCOCCNC(=O)CCC(C(=O)O)N1CCN(CC(=O)O)CCN(CC(=O)O)CC1)C(C)C)C(N)=O (stereo partly shown) [lutetium-177 labelled]			female BALB/c nu/nu mice, blood	intravenous, 50 pmol, 1 h		tissue uptake	0.4 ± 0.1 %ID/g
C=CCn1c(=O)c2cnc(Nc3ccc(N4CCN(C)CC4)cc3)nc2n1-c1ccc2c(n1)[C@@](O)(CC)CC2	A-427	capillary western blot		0.1, 0.3, 1 µM, 16 h		cyclin E1 level	decreased
Cn1cc(-c2ccc(-c3cncc(Cl)c3N3CCC4(CCNC4=O)CC3)cc2)cn1	COLO 205	microarray, measured: NFE2L2		concentration not given, 6 h, gene set NRF2	reference: untreated cells	fold change in expression	-1.16
O=C(O)COC(=O)Cc1ccccc1Nc1c(Cl)cccc1Cl	human iPSC-derived cardiomyocytes	MyBP-C/MYH ratio, plate-normalised SD score		concentration not given, primary screen	direction not given	activity score	4
O=C(/C=C/C=C/C=C/C1CCCCC1)NC1=C[C@@](O)(/C=C/C=C/C=C/C(=O)NC2=C(O)CCC2=O)[C@@H]2O[C@@H]2C1=O	EBC-1	cell growth, CellTiter-Glo		78 h		GI50	11900 nM
O=C(O)CCCCCN1C(=O)/C(=C\c2ccc(-c3ccc(Cl)cc3)o2)SC1=S	C127 LDR GFP reporter cells	silenced GFP reporter induction, activator, high-content imaging		retest, two-run mean		efficacy	109%
CCOc1c([C@H](C)n2nc(C)c3c(N)ncnc32)cc(Cl)c(F)c1[C@@H]1CNC(=O)C1		measured: QTcF change above 60 ms	previously treated B-cell malignancy	oral, 10 mg once daily, overall population	reference: baseline	ECG observations	0%
C[C@]12CC[C@@H]3c4ccc(O)cc4C[C@@H](CCCCCCCCC[S+]([O-])CCCC(F)(F)C(F)(F)F)[C@H]3[C@@H]1CC[C@@H]2O (stereo partly shown)	human iPSC-derived cardiomyocytes	MyBP-C/MYH ratio, plate-normalised SD score		concentration not given, primary screen	direction not given	activity score	3.5
COc1cc(C(=O)Nc2cc(OCCN3CCCC3)c3ccccc3n2)nc(C(=O)Nc2cc(OCCN3CCCC3)c3ccccc3n2)c1	U2OS	cell viability, CellTiter-Glo		72 h	reference: IC50 U2OS over WI-38	selectivity ratio	2.4
NCc1cc2c(cc1F)C(=O)N(C1CCC(=O)NC1=O)C2 (stereo not shown)	Amine oxidase [copper-containing] 3 (AOC3, Homo sapiens, UniProt Q16853)	substrate, LC-MS/MS	cirrhotic human liver lysate	250.00 µM, 60 min, pH 7.4		concentration	21300 ng/mL and 20100 ng/mL
CCn1cc(-c2cc(Cn3ccoc3=N)cc3c2CCN([C@@H](C)c2cc(OC)ccn2)C3=O)c(C(F)(F)F)n1	OVISE	cell growth, inhibitor		120 h		EC50	1180 nM
O=C(NCc1ccccc1)OCCO	human iPSC-derived cardiomyocytes	MyBP-C/MYH ratio, plate-normalised SD score		concentration not given, primary screen	direction not given	activity score	3.6
COc1cccc(N2CCN(S(=O)(=O)c3ccc(-n4cnnn4)cc3)CC2)c1	C127 LDR GFP reporter cells	silenced GFP reporter induction, activator, high-content imaging		retest, two-run mean		efficacy	208%
CSc1cc(Oc2ccnc3[nH]c(=O)cnc23)ccc1NC(=O)Nc1cc(C(C)(C)C)nn1-c1ccccc1	patient-derived B cell clone line	reverse phase protein array	human	1 µM, 4 h	reference: DMSO	phosphorylated STAT5 level	0.71
COc1cnc2cccc(N3CCc4c(cc(Cn5ccnc5C)cc4-c4cn(C)nc4C(F)(F)F)C3=O)c2c1	JHOS2	cell growth		120 h		EC50	460 nM
Cc1cc(OCc2nnc(SC3CCCC3)n2-c2cccnc2)ccc1-c1ccc(S(C)(=O)=O)cc1	MYBPC3 iPSC cardiomyocytes	plate-normalised		concentration not given, 24 h, hit retest		MyBP-C level	1%

Repeated from above:
SMILES	target or system	assay	test system	conditions	how to read	endpoint	result
NCc1cc2c(cc1F)C(=O)N(C1CCC(=O)NC1=O)C2 (stereo not shown)	Amine oxidase [copper-containing] 3 (AOC3, Homo sapiens, UniProt Q16853)	substrate, LC-MS/MS	cirrhotic human liver lysate	250.00 µM, 60 min, pH 7.4		concentration	21300 ng/mL and 20100 ng/mL
CCn1cc(-c2cc(Cn3ccoc3=N)cc3c2CCN([C@@H](C)c2cc(OC)ccn2)C3=O)c(C(F)(F)F)n1	OVISE	cell growth, inhibitor		120 h		EC50	1180 nM
O=C(NCc1ccccc1)OCCO	human iPSC-derived cardiomyocytes	MyBP-C/MYH ratio, plate-normalised SD score		concentration not given, primary screen	direction not given	activity score	3.6
COc1cccc(N2CCN(S(=O)(=O)c3ccc(-n4cnnn4)cc3)CC2)c1	C127 LDR GFP reporter cells	silenced GFP reporter induction, activator, high-content imaging		retest, two-run mean		efficacy	208%
CSc1cc(Oc2ccnc3[nH]c(=O)cnc23)ccc1NC(=O)Nc1cc(C(C)(C)C)nn1-c1ccccc1	patient-derived B cell clone line	reverse phase protein array	human	1 µM, 4 h	reference: DMSO	phosphorylated STAT5 level	0.71
COc1cnc2cccc(N3CCc4c(cc(Cn5ccnc5C)cc4-c4cn(C)nc4C(F)(F)F)C3=O)c2c1	JHOS2	cell growth		120 h		EC50	460 nM
